Measurements collected from several papers.
A part holds a random share of what one study measured.
UniProt P00519, sequence (whole entry, unmodified, looked up): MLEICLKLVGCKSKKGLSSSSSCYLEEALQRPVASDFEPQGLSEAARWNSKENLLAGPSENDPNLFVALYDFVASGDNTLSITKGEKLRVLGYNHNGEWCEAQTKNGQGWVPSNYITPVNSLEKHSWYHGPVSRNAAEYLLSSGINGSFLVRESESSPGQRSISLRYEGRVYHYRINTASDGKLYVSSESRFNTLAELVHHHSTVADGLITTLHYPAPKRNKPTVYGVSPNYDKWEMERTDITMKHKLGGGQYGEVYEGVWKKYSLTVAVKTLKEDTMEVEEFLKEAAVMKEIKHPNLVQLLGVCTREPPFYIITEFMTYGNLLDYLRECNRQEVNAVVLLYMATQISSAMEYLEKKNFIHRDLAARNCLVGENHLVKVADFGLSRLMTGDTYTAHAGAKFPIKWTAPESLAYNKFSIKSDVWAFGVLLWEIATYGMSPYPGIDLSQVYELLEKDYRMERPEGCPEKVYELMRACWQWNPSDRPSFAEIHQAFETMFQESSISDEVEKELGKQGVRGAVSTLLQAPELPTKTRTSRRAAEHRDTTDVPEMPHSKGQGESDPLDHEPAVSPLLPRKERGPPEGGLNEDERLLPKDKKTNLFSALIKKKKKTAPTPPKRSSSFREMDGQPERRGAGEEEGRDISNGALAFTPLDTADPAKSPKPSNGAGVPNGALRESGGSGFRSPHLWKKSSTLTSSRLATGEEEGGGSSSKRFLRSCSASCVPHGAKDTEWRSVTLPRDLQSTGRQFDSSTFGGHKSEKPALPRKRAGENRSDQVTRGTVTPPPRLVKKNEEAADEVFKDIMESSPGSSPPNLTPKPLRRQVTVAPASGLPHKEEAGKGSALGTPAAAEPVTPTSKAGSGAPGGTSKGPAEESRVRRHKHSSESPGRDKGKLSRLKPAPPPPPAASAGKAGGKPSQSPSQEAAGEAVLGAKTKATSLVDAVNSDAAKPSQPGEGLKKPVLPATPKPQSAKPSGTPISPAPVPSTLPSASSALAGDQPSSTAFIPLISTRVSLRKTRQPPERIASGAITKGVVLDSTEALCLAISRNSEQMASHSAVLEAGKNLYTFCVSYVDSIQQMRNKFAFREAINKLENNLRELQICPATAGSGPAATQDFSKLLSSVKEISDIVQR
UniProt O75582, sequence (whole entry, looked up): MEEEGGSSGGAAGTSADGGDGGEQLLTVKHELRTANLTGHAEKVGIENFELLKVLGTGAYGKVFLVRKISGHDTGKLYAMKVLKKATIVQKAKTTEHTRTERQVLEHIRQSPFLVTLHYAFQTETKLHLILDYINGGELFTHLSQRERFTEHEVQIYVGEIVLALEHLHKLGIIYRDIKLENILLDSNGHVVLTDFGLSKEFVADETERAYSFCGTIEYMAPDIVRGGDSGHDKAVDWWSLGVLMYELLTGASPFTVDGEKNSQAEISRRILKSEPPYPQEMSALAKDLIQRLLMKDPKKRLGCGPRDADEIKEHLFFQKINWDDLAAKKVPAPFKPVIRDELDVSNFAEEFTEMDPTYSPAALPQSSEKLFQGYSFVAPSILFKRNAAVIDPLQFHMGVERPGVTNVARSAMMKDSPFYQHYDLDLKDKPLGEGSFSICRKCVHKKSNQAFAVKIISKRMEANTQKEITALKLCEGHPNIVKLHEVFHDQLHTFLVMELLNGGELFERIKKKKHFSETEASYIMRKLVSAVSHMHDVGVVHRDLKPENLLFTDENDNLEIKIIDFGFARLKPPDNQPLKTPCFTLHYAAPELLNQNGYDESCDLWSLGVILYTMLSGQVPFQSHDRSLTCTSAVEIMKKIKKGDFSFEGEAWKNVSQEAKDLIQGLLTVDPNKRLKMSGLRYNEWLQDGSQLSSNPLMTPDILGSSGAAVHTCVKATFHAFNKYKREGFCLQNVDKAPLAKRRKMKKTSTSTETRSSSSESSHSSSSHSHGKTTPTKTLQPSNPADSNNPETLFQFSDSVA
UniProt Q9UEE5, sequence (whole entry, looked up): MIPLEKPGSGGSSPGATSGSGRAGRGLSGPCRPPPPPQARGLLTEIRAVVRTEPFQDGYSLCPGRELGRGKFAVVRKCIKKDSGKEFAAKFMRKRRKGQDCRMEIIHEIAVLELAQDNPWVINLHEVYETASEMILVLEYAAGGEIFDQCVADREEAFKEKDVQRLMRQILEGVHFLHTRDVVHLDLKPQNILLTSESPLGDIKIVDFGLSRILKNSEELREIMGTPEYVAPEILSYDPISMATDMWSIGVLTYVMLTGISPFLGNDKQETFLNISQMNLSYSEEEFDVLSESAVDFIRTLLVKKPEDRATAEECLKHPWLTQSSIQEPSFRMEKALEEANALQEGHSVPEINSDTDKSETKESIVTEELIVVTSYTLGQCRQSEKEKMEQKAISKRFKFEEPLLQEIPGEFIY
UniProt P09619, sequence (whole entry, looked up): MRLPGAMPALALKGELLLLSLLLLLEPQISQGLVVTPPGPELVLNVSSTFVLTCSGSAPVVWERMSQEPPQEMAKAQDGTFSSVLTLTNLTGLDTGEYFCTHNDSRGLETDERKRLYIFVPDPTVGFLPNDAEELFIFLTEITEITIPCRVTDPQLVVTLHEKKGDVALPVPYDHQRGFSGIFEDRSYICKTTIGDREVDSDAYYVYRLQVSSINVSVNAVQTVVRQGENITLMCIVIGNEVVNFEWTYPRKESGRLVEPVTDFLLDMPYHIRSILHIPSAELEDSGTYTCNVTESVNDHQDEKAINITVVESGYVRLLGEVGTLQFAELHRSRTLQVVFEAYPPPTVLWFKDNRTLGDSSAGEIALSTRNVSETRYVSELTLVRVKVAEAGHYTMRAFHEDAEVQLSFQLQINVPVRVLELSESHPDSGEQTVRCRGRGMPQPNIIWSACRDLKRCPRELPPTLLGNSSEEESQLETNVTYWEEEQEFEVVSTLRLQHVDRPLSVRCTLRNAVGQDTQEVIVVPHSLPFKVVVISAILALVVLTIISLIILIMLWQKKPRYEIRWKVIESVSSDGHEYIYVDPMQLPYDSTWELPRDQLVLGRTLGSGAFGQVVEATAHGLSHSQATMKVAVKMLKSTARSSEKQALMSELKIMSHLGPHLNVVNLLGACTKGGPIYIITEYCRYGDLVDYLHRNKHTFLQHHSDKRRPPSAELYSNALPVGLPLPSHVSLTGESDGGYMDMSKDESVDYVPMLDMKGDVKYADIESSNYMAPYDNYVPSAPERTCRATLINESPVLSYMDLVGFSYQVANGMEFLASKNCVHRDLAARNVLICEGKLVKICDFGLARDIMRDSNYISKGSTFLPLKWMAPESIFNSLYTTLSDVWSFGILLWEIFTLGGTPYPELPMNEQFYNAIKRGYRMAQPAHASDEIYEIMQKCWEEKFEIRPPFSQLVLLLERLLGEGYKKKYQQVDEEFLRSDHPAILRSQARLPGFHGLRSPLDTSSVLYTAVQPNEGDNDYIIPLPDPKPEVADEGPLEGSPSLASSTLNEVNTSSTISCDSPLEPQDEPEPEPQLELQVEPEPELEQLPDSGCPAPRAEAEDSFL
UniProt O43781, sequence (whole entry, looked up): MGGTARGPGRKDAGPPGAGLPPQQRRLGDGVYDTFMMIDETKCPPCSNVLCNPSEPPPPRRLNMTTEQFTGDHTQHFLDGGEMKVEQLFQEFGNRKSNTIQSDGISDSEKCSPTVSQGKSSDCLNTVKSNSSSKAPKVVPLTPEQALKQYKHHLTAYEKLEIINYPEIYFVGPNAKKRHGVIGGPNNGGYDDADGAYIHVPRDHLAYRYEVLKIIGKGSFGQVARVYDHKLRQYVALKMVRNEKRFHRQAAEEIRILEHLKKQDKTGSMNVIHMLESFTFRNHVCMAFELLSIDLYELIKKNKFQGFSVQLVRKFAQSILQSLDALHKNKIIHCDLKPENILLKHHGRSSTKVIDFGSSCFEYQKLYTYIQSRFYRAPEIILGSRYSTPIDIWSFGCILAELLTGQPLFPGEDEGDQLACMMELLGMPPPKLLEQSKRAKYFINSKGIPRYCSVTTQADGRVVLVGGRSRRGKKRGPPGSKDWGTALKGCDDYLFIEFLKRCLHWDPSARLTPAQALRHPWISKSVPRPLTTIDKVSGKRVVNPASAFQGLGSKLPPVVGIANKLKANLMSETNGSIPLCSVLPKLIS
UniProt Q8NE63, sequence (whole entry, looked up): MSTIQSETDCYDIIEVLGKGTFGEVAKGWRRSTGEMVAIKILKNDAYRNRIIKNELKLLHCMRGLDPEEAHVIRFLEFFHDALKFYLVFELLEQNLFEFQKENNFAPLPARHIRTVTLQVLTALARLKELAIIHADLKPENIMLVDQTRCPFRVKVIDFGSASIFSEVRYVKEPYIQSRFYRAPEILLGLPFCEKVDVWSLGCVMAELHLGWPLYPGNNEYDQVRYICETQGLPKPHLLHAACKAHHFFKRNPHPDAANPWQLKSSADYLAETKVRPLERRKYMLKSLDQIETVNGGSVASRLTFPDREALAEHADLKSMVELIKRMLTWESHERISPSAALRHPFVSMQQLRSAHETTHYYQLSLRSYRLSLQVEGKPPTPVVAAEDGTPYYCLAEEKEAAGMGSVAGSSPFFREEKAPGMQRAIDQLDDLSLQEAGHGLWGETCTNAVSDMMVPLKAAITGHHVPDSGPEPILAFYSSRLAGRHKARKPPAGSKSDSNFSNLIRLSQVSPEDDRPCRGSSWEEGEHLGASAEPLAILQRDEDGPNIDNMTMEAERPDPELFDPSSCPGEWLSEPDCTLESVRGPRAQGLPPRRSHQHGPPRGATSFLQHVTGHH
UniProt Q9HC98, sequence (whole entry, looked up): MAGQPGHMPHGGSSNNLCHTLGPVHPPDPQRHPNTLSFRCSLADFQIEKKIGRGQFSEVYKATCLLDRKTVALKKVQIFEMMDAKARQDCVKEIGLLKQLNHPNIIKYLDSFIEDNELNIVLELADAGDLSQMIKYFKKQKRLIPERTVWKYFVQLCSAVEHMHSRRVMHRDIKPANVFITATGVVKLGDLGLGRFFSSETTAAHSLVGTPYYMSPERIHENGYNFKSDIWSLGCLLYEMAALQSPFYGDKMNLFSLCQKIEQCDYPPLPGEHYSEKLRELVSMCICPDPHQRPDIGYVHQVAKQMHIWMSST

Set 1
SMILES: O=C1Cc2c([nH]c3ccc([N+](=O)[O-])cc23)-c2ccccc2N1
Effect on: enzyme activity
Mode: inhibitor
Concentration: 0.5 µM
Baseline: control
| target | remaining activity |
| --- | --- |
| Homeodomain-interacting protein kinase 4 (HIPK4, Homo sapiens, UniProt Q8NE63) | 103% |
| Calcium/calmodulin-dependent protein kinase type II subunit beta (CAMK2B, Homo sapiens, UniProt Q13554) | 98.1% |
| Ephrin type-B receptor 1 (EPHB1, Homo sapiens, UniProt P54762) | 112% |
| Serine/threonine-protein kinase 16 (STK16, Homo sapiens, UniProt O75716) | 93.1% |
| Phosphorylase b kinase gamma catalytic chain, skeletal muscle/heart isoform (PHKG1, Homo sapiens, UniProt Q16816) | 9.22% |
| Serine/threonine-protein kinase 17A (STK17A, Homo sapiens, UniProt Q9UEE5) | 46.4% |
| Dual specificity tyrosine-phosphorylation-regulated kinase 3 (DYRK3, Homo sapiens, UniProt O43781) | 99.3% |
| Tyrosine-protein kinase Srms (SRMS, Homo sapiens, UniProt Q9H3Y6) | 92.9% |
| Homeodomain-interacting protein kinase 2 (HIPK2, Homo sapiens, UniProt Q9H2X6) | 110% |
| Ephrin type-A receptor 4 (EPHA4, Homo sapiens, UniProt P54764) | 96.5% |
| Tyrosine-protein kinase ABL1 (ABL1, Homo sapiens, UniProt P00519) | 57.7% |
| Serine/threonine-protein kinase WNK3 (WNK3, Homo sapiens, UniProt Q9BYP7) | 99.7% |
| Ephrin type-B receptor 4 (EPHB4, Homo sapiens, UniProt P54760) | 87.2% |
| Cyclin-dependent kinase 1, with cyclin B (CDK1, Homo sapiens, UniProt P06493) | 23.2% |
| Mitogen-activated protein kinase kinase kinase kinase 4 (MAP4K4, Homo sapiens, UniProt O95819) | 4.47% |
| Ribosomal protein S6 kinase alpha-6 (RPS6KA6, Homo sapiens, UniProt Q9UK32) | 38% |
| Testis-specific serine/threonine-protein kinase 2 (TSSK2, Homo sapiens, UniProt Q96PF2) | 88.3% |
| Tyrosine-protein kinase Blk (BLK, Homo sapiens, UniProt P51451) | 94.2% |
| Cyclin-dependent kinase 6, with cyclin D3 (CDK6, Homo sapiens, UniProt Q00534) | 43.4% |
| MAP kinase-activated protein kinase 3 (MAPKAPK3, Homo sapiens, UniProt Q16644) | 97% |
| Ribosomal protein S6 kinase alpha-5 (RPS6KA5, Homo sapiens, UniProt O75582) | 107% |
| 3-phosphoinositide-dependent protein kinase 1 (PDPK1, Homo sapiens, UniProt O15530) | 93.7% |

Set 2
Host: human
Sample: microsomes or S9
Concentration: 2 µM
Time: 0.5 h
| Compound | remaining compound [%] |
| --- | --- |
| Clc1ccc2c(c1)C=C(c1nnc(Cc3ccccc3)o1)C=CO2 | 76.6 |
| CN(C)CCCOc1ccc(CN2CCC(NC(=O)c3ccco3)CC2)cc1 | 63.5 |
| CC(=O)OC(CF)c1cc(F)ccc1S(N)(=O)=O (centres unmarked) | 50 |
| CC1(NC(=O)c2ccc3cc[nH]c3n2)CC=CCC1 (centres unmarked) | 25.2 |
| COc1cc(N2CCC(N3CCN(C)CC3)CC2)ccc1Nc1ncc(Cl)c(Nc2ccccc2N)n1 | 76.9 |
| CCOC(=O)c1cc2cc(NC(=N)N)ccc2s1 | 3.82 |
| CC(=O)N1N=C(Cn2nc(C)cc2C)OC1c1ccccc1OCc1cccc(Br)c1 (centres unmarked) | 5.01 |
| O=S1(=O)N=C(Nc2ccc3c(c2)Cc2ccccc2-3)c2ccccc21 | > 99.9 |
| CCn1c2nc(C)cc(C)c2c(=O)n2c(C(=O)O)nnc12 | 64.9 |
| Cc1ccc(C(OC(=O)CC(C)C)c2cc(=O)cc[nH]2)cc1 (centres unmarked) | 48.4 |
| O=C1OCc2c(-c3ccccc3)sc(-c3ccc4c(c3)OCO4)c21 | 53.7 |
| COc1ccc(C(N)=O)cc1NC1C2CCOC2C12CCC2 (centres unmarked) | 68.7 |

Set 3
Organism: Sarcocystis neurona
Effect on: parasite growth
Concentration: 10 µM
Time: 96 h
Baseline: untreated
| Compound | log2 fold change |
| --- | --- |
| C[C@@H](O)[C@H]1C(=O)N2C(C(=O)O)=C(S[C@@H]3CN[C@H](C(=O)N(C)C)C3)[C@H](C)[C@H]12 | 0.19 |
| O=C(c1ccccc1)c1ccc2n1CCC2C(=O)O (centres unmarked) | 0.52 |
| CC(=O)[C@@]1(O)CC[C@H]2[C@@H]3C[C@H](C)C4=CC(=O)C=C[C@]4(C)[C@@]3(F)[C@@H](O)C[C@@]21C | 0.43 |
| CCC(=O)OCC(=O)[C@@]1(OC(=O)CC)[C@@H](C)C[C@H]2[C@@H]3CCC4=CC(=O)C=C[C@]4(C)[C@@]3(Cl)[C@@H](O)C[C@@]21C | 0.32 |
| Cc1cn([C@H]2C[C@H](N=[N+]=[N-])[C@@H](CO)O2)c(=O)[nH]c1=O | 0.27 |

Set 4
SMILES: COc1ccc2c(c1)O[C@H](c1ccc(OC)c(OC)c1)C[C@@H]2NC(=O)C1(c2ccc3c(c2)OC(F)(F)O3)CC1
Concentration: 1 µM
| target | assay | remaining binding [%] |
| --- | --- | --- |
| Aurora kinase A (AURKA, Homo sapiens, UniProt O14965) | cell-free assay, competition with immobilised ligand | 100 |
| Ribosomal protein S6 kinase alpha-5, C-terminal kinase domain (RPS6KA5, Homo sapiens, UniProt O75582) | cell-free assay, competition with immobilised ligand | 100 |
| Myotonin-protein kinase (DMPK, Homo sapiens, UniProt Q09013) | cell-free assay, competition with immobilised ligand | 94 |
| Interferon-induced, double-stranded RNA-activated protein kinase (EIF2AK2, Homo sapiens, UniProt P19525) | cell-free assay, competition with immobilised ligand | 100 |
| Receptor-type tyrosine-protein kinase FLT3 (FLT3, Homo sapiens, UniProt P36888, D835Y) | cell-free assay, competition with immobilised ligand | 100 |
| Serine/threonine-protein kinase PRP4 homolog (PRPF4B, Homo sapiens, UniProt Q13523) | cell-free assay, competition with immobilised ligand | 56 |
| Tyrosine-protein kinase BTK (BTK, Homo sapiens, UniProt Q06187) | cell-free assay, competition with immobilised ligand | 92 |
| Cyclin-dependent kinase-like 3 (CDKL3, Homo sapiens, UniProt Q8IVW4) | cell-free assay, competition with immobilised ligand | 97 |
| Serine/threonine-protein kinase mTOR (MTOR, Homo sapiens, UniProt P42345) | cell-free assay, competition with immobilised ligand | 100 |
| Serine/threonine-protein kinase PAK 4 (PAK4, Homo sapiens, UniProt O96013) | cell-free assay, competition with immobilised ligand | 100 |
| Ephrin type-A receptor 5 (EPHA5, Homo sapiens, UniProt P54756) | cell-free assay, competition with immobilised ligand | 100 |
| Serine/threonine-protein kinase Nek6 (NEK6, Homo sapiens, UniProt Q9HC98) | cell-free assay, competition with immobilised ligand | 100 |
| Cyclin-dependent kinase 19 (CDK19, Homo sapiens, UniProt Q9BWU1) | competition binding | 94 |
| Tyrosine-protein kinase ABL1, phosphorylated (ABL1, Homo sapiens, UniProt P00519, F317I) | cell-free assay, competition with immobilised ligand | 100 |
| Platelet-derived growth factor receptor beta (PDGFRB, Homo sapiens, UniProt P09619) | cell-free assay, competition with immobilised ligand | 100 |
| Tyrosine-protein kinase FRK (FRK, Homo sapiens, UniProt P42685) | cell-free assay, competition with immobilised ligand | 100 |
| Ephrin type-A receptor 6 (EPHA6, Homo sapiens, UniProt Q9UF33) | cell-free assay, competition with immobilised ligand | 100 |

Excerpt of the above (set 2):
| Compound | remaining compound [%] |
| --- | --- |
| CCOC(=O)c1cc2cc(NC(=N)N)ccc2s1 | 3.82 |
| CC(=O)N1N=C(Cn2nc(C)cc2C)OC1c1ccccc1OCc1cccc(Br)c1 (centres unmarked) | 5.01 |
| O=S1(=O)N=C(Nc2ccc3c(c2)Cc2ccccc2-3)c2ccccc21 | > 99.9 |
| CCn1c2nc(C)cc(C)c2c(=O)n2c(C(=O)O)nnc12 | 64.9 |
| Cc1ccc(C(OC(=O)CC(C)C)c2cc(=O)cc[nH]2)cc1 (centres unmarked) | 48.4 |
| O=C1OCc2c(-c3ccccc3)sc(-c3ccc4c(c3)OCO4)c21 | 53.7 |
| COc1ccc(C(N)=O)cc1NC1C2CCOC2C12CCC2 (centres unmarked) | 68.7 |
